# Measurements of several laboratories.
# Every numbered part comes from another study and shows a few of its results, in no order.
# Chain of UniProt O00141 (whole entry, looked up): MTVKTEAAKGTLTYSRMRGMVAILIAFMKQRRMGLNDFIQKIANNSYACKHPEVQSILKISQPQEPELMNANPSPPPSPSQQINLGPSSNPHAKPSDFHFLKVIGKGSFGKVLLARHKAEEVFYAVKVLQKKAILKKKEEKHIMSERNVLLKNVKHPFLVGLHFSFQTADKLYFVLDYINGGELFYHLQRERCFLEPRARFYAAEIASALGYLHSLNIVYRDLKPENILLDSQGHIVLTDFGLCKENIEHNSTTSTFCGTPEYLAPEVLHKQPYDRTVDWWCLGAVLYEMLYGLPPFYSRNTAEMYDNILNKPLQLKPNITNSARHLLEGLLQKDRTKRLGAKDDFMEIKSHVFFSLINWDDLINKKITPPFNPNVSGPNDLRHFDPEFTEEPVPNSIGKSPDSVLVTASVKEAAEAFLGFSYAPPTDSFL
# Chain of UniProt Q9P1W9 (whole entry, looked up): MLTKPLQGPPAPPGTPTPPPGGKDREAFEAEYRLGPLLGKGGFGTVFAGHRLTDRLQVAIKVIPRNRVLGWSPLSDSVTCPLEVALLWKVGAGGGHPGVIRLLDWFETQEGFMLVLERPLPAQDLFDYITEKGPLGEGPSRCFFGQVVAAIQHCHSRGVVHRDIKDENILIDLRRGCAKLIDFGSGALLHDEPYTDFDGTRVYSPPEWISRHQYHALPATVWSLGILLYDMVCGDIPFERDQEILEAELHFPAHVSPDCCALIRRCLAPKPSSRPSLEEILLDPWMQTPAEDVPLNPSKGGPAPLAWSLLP
# Chain of UniProt P49840 (whole entry, looked up): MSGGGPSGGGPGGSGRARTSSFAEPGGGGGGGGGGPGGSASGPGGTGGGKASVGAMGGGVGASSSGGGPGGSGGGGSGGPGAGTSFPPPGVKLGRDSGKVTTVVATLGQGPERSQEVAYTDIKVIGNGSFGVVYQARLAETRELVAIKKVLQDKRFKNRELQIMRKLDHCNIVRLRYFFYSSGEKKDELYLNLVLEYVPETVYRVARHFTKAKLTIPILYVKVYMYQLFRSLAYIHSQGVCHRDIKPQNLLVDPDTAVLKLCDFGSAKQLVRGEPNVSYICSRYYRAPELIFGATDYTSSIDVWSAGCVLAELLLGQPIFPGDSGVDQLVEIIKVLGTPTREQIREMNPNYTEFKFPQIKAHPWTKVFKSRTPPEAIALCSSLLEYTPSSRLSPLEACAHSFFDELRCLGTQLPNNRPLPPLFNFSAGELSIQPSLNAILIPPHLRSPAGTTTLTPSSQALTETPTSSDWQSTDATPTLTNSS
# Chain of UniProt Q9Y243 (whole entry, looked up): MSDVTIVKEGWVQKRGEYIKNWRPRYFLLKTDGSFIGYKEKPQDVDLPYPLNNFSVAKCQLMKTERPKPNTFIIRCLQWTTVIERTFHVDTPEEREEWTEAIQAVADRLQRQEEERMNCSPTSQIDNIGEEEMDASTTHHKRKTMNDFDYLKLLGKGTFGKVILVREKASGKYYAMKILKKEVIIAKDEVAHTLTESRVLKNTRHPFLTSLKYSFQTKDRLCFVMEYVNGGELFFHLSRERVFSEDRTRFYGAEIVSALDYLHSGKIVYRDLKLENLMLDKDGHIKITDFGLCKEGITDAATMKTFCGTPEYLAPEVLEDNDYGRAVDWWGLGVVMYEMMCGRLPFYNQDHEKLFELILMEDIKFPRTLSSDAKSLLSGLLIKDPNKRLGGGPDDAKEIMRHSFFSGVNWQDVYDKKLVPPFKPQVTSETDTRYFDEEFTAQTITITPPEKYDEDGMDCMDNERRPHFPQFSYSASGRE
# Chain of UniProt Q13177 (whole entry, looked up): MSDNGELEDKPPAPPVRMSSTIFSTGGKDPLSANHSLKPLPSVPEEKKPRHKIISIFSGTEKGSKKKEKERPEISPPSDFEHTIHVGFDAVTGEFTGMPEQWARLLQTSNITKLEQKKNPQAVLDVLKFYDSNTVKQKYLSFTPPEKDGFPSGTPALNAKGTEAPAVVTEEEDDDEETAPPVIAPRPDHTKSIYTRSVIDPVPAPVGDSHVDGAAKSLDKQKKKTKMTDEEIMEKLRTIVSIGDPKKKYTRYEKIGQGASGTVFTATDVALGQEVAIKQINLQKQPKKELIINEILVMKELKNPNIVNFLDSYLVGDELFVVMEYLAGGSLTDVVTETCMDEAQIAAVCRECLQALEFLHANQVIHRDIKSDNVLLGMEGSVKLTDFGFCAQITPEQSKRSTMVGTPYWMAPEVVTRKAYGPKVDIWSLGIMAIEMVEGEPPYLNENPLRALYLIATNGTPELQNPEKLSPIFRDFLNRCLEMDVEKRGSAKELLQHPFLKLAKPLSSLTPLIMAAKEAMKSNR
# Chain of UniProt Q9UPE1 (whole entry, looked up): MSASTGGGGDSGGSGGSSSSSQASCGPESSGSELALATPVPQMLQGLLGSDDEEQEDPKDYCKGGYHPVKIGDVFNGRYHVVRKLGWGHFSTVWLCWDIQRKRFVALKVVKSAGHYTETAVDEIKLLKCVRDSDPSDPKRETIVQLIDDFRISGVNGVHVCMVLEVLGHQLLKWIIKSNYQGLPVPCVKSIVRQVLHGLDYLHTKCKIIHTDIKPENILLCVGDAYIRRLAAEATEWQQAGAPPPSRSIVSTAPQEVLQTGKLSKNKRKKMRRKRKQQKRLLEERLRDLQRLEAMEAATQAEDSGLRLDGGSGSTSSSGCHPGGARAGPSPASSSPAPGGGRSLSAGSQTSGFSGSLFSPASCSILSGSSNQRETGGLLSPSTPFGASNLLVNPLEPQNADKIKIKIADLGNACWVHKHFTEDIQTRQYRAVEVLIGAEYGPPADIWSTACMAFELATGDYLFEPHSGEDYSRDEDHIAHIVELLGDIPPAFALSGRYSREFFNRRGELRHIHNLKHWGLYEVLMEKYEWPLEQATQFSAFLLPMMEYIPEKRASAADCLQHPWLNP
# Chain of UniProt Q15418 (whole entry, looked up): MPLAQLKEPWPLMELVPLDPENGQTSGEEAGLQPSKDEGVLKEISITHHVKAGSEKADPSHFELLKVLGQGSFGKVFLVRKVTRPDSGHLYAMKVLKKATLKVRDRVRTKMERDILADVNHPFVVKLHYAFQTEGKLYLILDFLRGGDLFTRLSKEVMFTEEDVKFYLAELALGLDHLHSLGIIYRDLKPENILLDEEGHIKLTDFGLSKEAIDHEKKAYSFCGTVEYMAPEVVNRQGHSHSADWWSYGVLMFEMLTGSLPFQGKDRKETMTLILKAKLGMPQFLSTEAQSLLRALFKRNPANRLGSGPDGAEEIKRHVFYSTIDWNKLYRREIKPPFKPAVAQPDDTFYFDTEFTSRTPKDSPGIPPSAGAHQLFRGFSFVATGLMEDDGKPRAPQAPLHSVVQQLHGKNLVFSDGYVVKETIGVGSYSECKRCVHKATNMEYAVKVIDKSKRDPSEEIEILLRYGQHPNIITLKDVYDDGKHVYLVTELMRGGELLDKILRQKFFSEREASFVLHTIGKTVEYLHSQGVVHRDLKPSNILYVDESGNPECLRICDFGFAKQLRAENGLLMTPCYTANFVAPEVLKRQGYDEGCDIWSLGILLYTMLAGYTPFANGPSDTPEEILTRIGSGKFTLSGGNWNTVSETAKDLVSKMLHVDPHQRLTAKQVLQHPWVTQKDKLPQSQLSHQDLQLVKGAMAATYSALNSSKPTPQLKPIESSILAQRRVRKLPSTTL
# Chain of UniProt P43250 (whole entry, looked up): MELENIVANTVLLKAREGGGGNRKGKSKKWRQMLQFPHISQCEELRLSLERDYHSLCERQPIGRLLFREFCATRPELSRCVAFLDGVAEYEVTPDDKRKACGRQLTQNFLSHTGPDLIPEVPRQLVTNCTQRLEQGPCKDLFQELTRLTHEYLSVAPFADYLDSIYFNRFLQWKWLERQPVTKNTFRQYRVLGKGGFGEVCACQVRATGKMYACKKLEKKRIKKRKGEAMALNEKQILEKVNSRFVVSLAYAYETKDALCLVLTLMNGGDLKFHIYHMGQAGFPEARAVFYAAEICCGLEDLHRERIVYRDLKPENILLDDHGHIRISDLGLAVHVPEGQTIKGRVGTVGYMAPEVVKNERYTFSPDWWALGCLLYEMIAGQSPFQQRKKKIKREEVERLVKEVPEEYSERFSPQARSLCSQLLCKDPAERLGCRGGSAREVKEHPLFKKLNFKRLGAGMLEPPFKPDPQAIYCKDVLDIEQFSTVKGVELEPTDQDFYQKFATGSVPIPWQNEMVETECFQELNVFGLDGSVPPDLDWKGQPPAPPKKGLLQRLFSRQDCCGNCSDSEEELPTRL

# Sample 1
# Target: Calcium/calmodulin-dependent protein kinase type II subunit alpha (CAMK2A, Homo sapiens, UniProt Q9UQM7)
# Chain of UniProt Q9UQM7 (whole entry, looked up): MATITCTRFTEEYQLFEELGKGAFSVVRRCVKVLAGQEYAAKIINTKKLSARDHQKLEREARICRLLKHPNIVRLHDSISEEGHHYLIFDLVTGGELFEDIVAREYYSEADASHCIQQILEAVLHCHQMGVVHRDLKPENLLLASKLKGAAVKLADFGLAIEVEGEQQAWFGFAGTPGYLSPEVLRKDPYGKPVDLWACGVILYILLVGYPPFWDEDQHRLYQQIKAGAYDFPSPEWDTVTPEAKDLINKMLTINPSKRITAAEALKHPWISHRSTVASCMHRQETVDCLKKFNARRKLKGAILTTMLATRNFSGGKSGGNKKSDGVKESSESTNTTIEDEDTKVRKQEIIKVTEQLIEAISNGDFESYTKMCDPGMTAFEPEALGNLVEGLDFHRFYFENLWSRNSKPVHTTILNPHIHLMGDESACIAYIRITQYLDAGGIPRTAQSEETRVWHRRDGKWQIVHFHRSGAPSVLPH
# Effect on: enzyme activity
# Action: inhibitor
# Concentration: 10 µM
Structure (SMILES),inhibition [%]
CCOC(=O)/C=C/c1ccc(O)cc1,20
N[C@@H](CC(=O)N[C@@H](CC(=O)O)C(=O)O)C(=O)O,25
CCCCCC(C)C(=O)O (stereo not shown),-21
Oc1cc(O)c2cc(O)c(-c3cc(O)c(O)c(O)c3)[o+]c2c1,-87
Oc1c(I)cc(Cl)c2cccnc12,-2
CS(=O)(=O)Nc1ccc([N+](=O)[O-])cc1Oc1ccccc1,-3
O=C(/C=C/c1ccc(O)cc1)c1c(O)cc(O)c(O)c1OC1O[C@H](CO)[C@@H](O)[C@H](O)[C@H]1O (stereo partly shown),-15
COc1ccc(-c2oc3cc(O)cc(O)c3c(=O)c2O)cc1O,-6

# Sample 2
# SMILES: COc1ccc(-c2c(Nc3ccccn3)[nH]c3c(C4=CCCCC4)c(-c4ccccc4)nn3c2=O)cc1
# Sample: plasma
# Route: oral
method,species,dose,time,setting,"plasma concentration, mean [ng/mL]"
,cancer patients,400 mg,4 h post-dose,single dose,1360
,human patients,200 mg once daily,8 h,cycle 1,6470
,cancer patients,200 mg,6 h post-dose,single dose,1420
,human patients,200 mg once daily,0 h,cycle 1,6560
,cancer patients,400 mg,6 h post-dose,single dose,1310
,cancer patients,100 mg,48 h post-dose,single dose,413
LC-MS/MS,human,200 mg twice daily,6 h,single dose,1600
,cancer patients,100 mg,3 h post-dose,single dose,1160

# Sample 3
# Structure (SMILES): Nc1nccc(-c2c(-c3ccc(F)cc3)ncn2C2CCNCC2)n1
# Effect on: enzyme activity
# Action: inhibitor
# Concentration: 0.5 µM
# Baseline: control
target,remaining activity
"CSF1R (Homo sapiens, UniProt P07333)",100%
"GRK6 (Homo sapiens, UniProt P43250)",98.2%
"SGK1 (Homo sapiens, UniProt O00141)",97.4%
"SRPK3 (Homo sapiens, UniProt Q9UPE1)",99.3%
"GSK3A (Homo sapiens, UniProt P49840)",97.5%
"PAK2 (Homo sapiens, UniProt Q13177)",76.9%
"RPS6KA1 (Homo sapiens, UniProt Q15418)",96.7%
"PIM2 (Homo sapiens, UniProt Q9P1W9)",100%

# Mixed results
Compound,target,effect on,method,endpoint,value
C=CC(=O)Nc1ccc2[nH]c(=O)n(C3CCN(Cc4ccc(-c5ccc6c(c5)NC(=O)CO6)cc4)CC3)c2c1,"RAC-gamma serine/threonine-protein kinase (AKT3, Homo sapiens, UniProt Q9Y243)",target engagement in cells,BRET,EC50,9.3 µM

# Repeated from above (sample 3):
target,remaining activity
"GRK6 (Homo sapiens, UniProt P43250)",98.2%
